# Experimental data of several laboratories.
# Numbered parts are unrelated; each lists some results of a single study. Changes are numbered by the printed parent chain.

# Sample 1
# Target: Histone acetyltransferase KAT6A, winged helix 2, GST fusion (KAT6A, Homo sapiens, UniProt Q92794, residues 85-181)
# Method: protein binding microarray
# Form: double-stranded DNA, one strand shown
# Sample: in vitro
# Concentration: not given
# Setting: 8-mer, flanks averaged, mean of 2 arrays, mostly near background
# Relative to: not given
# Direction: higher = stronger binding
# Construct (chain): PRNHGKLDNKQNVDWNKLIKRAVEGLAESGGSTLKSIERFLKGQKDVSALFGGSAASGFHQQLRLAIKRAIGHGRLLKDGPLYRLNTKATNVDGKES
Strand,E-score
GCATTGAC,-0.0374
CCCGATAG,-0.129
CGACATTA,-0.0867
GTAAACTA,0.0975
ATGTCTCG,-0.0833
CACAGAAC,-0.00822
CATGTTGG,-0.161
ACTAGGGC,-0.0921
AGCCTGTC,0.0249
GGGAGTAA,0.0497
GCTTCGAC,-0.0588
CACAAAGG,-0.0463
GAATTTTA,0.0923
GTACCTTA,-0.149
CTTGCCCC,0.115
CCCGAGAA,0.153
GGTGTTTA,-0.00352
AATAACCG,-0.0626
GGACGCGA,0.0241
ACTTCCCT,-0.107
CAGATCGC,0.116
GAGGTGAC,0.16

# Sample 2
# Target: CEBPA, bZIP domain (human)
# Method: DHFR protein complementation
# Sample: yeast
# Setting: single substitutions, most at no-binding floor
# Relative to: wild-type JUN-FOS pair
# Direction: higher = stronger binding
# Starting sequence: JUN, bZIP domain (human); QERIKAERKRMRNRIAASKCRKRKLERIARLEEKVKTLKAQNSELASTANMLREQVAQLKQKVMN; partner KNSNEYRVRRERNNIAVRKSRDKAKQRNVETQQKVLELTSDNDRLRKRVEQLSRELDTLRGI
Change,binding fitness
E54S,-1.46 natural log
K36F,-1.48 natural log
E33T,-1.41 natural log
K36I,-1.48 natural log
E32M,-1.5 natural log
E33P,-1.51 natural log
T37A,-1.34 natural log
M51G,-1.51 natural log
L31N,-1.49 natural log
T48Q,-1.38 natural log
E32S,-1.45 natural log
L52W,-1.59 natural log
T37C,-1.38 natural log
V56F,-1.54 natural log
V56P,-1.53 natural log
A49G,-1.48 natural log
E32K,-1.39 natural log
S47G,-1.45 natural log
I28D,-1.36 natural log
A46K,-1.43 natural log
L52V,-1.45 natural log
L45D,-1.5 natural log
V35Y,-1.45 natural log
A29S,-1.43 natural log
A57K,-1.48 natural log

# Sample 3
# Target: CCNE2, cyclin fold, Cln2 fusion (human)
# Method: yeast growth competition, sequencing
# Sample: yeast
# Setting: strong parent motif
# Relative to: not given
# Direction: higher = stronger binding
# Starting sequence: CDC25A docking peptide (human); PPHRRRLLFACSP; partner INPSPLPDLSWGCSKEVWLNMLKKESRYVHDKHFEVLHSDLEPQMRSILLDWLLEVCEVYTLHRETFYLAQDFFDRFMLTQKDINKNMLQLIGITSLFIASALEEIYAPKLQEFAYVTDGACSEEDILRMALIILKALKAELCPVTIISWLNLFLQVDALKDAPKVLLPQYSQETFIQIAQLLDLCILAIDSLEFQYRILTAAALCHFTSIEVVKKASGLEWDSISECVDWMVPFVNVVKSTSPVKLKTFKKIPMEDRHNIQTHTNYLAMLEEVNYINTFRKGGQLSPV
Change,normalised enrichment score
L8H,2.47
L8T,2.96
R6I,0.539
F9Q,0.441
P13V,1.86
S12M,1.43
A10R,1.7
P1S,2.68
A10N,2.54
C11R,0.811
S12I,1.84
F9N,0.637
F9I,0.949
S12L,1.19
P1M,2.05
L7K,0.757
L7N,0.673
P2S,1.2
F9D,0.338
R4K,2.43
C11Y,1.05
R4S,-0.0666
R6Q,1.7
R6N,0.874
R6V,1.69

# Sample 4
# Target: RING finger protein unkempt homolog, zinc fingers 1-6, GST-SBP tag (UNK, Homo sapiens, UniProt Q9C0B0, residues 30-357)
# Method: RNA Bind-n-Seq
# Form: RNA
# Sample: in vitro
# Concentration: not given
# Setting: RNA with constant flanks, human and mouse sites, ends assumed
# Relative to: input RNA pool
# Direction: higher = stronger binding
# Shared flanks, not repeated: GGGAGUUCUACAGUCCGACGAUC … CAACAGAGGAUUGAGCAUCA
# Target sequence (chain): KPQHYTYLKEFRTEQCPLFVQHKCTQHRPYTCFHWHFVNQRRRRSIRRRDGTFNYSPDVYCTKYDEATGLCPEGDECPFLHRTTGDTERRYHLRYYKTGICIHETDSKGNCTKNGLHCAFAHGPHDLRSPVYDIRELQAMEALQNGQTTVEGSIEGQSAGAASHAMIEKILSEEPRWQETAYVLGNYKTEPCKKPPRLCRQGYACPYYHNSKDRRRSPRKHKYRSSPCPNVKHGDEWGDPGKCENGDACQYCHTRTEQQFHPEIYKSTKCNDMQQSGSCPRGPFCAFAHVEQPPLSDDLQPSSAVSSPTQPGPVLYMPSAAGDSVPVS
Strand,bound/input enrichment
CUCCAUUUCUUCCCAUGCUGUAACCCCAGGCUCCACCAGCUGUUCCCCAGUGAUGUUACCUAGCUUCCCUCUACCGUUGUCUACUGACCAUUUCCACUACAUGCCUUUCCUACCUUCCCU,0.532 ratio
AAGCUGCUGUGUGGCCUGCUGUCCGAUCGCCUGCACAUCAGCCCGGACCGGGUCUACAUCAACUAUUACGACAUGAACGCUGCCAACGUGGGCUGGAACGGUUCCACCUUCGCUUGAGUC,0.0531 ratio
UGCUCGUUUGCUUCUUCCAUCCUUUCUUCUGAGGGAGGGGUCCUGUUGUAGUGUGAAUUCUAUAGUCUCGCUUGUCCUUGAAUUUAUGGAAACCCUUCAUUUCAGCUUCUCUAGUGUUGG,0.681 ratio
AUUGAGAACAGCUCUCCAAAUAGGAAUAGUAGUAAAAAAAAUAAGCAAAAUGAUAUUUGUAUAGAAAAAACAGAAGUUAAAUCAUGUAAAGUAAAUGCUGCCAACCUUCCAGGUCCUAAA,172 ratio
GAAGUCGUUUCUCCCCAACUCCCAACUCCUGAAGGUUGCUGCCUGCAUAUUUACUCUUCAUUAGUGCUAUUUUCCUGUAUGUCAUUGUGAGCAAGCUGUGAUUAAUAAAGAAUUGGAGUU,1.05 ratio
UACAUGGGCUCACAGAAGCAAUUUAAAAUUACCAAACUCUCACCAGCAAUGGGUUGUAAAUUUAGAUUAUCAGCCAAAAAUGACUAUGGUGUAAGUGAUUUUAGUGAAGAGGUCCUGUAC,0.15 ratio
AGGAGUGCACUUUUGUUUUGUUUUGUUCUUUUUGGAACUGUGCCUGGGUUGGAGGUCUGGACAGGGAGCCCAGUCCCGGGCCCCAUAGUGGUGCGGGCACUGGACCCCCGGGCCCCACGG,0.221 ratio
GAAGGCAAACCACUCUUCUCCCAGGCCUCUGCUCACCAGGGCUUGAGCUUUGCCUCAAGGAUAGAAGGAUGUACAGAGGGGGCUCUUGGUUUGAGGACCACUUGAGCCGUUUUCUCAUCU,0.233 ratio
AAAGCACAAAGAAAUUUGUUUUCCCUAGAGGAUCAGGGUAGAGUGAGGCAUUUCUAAUUGUCUAUCUCUUCCAAAACCAGGGAGUCCCAGCAGGCAGGAGUCCCAGCAGGCAGGCUUGCU,0.417 ratio
CUGAAUAGCAAUAAAUAUUUUCCCAGCAGGGUUAGCAUAAAGGAAUCAUCUGUAGCGAAACUAGGAUCAGUAUGCCGUAGGAUUUACAGAAUAUUUUCACAUGCUUAUUUUCAUCAUCGG,1.66 ratio
CAAAUCCUAGAGAGCCUUUCCACGUCUCCUCUGGCCGAGCCCCCCCACUUUGUUGAACAUAUUAGAUCUACCUUGAUGUUUUUAAAAAAAUUCCCAUCUCCAGAGAAUAUACUCUUUCCU,1.83 ratio

# Sample 5
# Molecule: PhoQ, residues 284 288 289 292 302 303 SASVAL
# Method: Sort-seq
# Refers to: YFP reporter
# Sample: E. coli
# Setting: PhoQ-PhoP variant library
# With: 10 µM Mg2+
# Relative to: high Mg2+ state
# Direction: higher = stronger signaling
target,fold induction
"PhoP, residues 12 14 15 18 19 QYCSL (Escherichia coli, UniProt P23836)",3.41
"PhoP, residues 12 14 15 18 19 STHWV (Escherichia coli, UniProt P23836)",0.759
"PhoP, residues 12 14 15 18 19 SHWTV (Escherichia coli, UniProt P23836)",1.15

# Sample 6
# Target: RNA binding protein fox-1 homolog 2, RRM domain, GST-SBP tag (RBFOX2, Homo sapiens, UniProt O43251-10, residues 100-194)
# Method: RNA Bind-n-Seq
# Form: RNA
# Sample: in vitro
# Concentration: 365 nM
# Setting: natural RNA segment, single round, ends assumed
# Relative to: no-protein control
# Direction: higher = stronger binding
# Shared flanks, not repeated: GGGAGUUCUACAGUCCGACGAUC … UGGAAUUCUCGGGUGCCAA
# Target sequence (chain): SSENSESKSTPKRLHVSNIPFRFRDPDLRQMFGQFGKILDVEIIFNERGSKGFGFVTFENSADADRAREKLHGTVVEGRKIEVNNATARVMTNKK
Strand,RBNS enrichment (R)
UGCACGGUGCAAGCUGUUGGUGGAUCUACCAUUCUGGGGUCUGGAGGACGGUGGCCCUCUUCUCACAGCUCCACUAGGCAGUGCCCCAGUAGGGACUCUGUGUGGGGGCU,0.238
GGAAGGCCACUGUUAGUAAGGUGCCAGAGCUGCGCCCUUUCCUCCAUCUGCCAUGCCCUAGCCACUAGAGUCUGGGUUCCAGCAGCUACCUGGGGACAUGUGGCUGCUCU,0.295
AGGAACUUCCGCACCUCCUGAGGCCCUGGAUGAUUCUAAUUGUUAGAAAUUCUAAUUGUUAGAAAUCCUUCCUUAUAAUGAAUGAAUUCUGCUUUCCUAUAAUUUCUACC,0.26
UGAUGAUUACUGGAAUCGAUUUUAUGUCUUUUGUAUUUUAAUCACUUGAGUUAAUCAACCACUGGCAAAUCCCAUUUGACAAAGAUUAGCAUUGUAAAAAACAGAUACUG,0.355
CUCCGUCUCAAAAAAAGGGCAAUAAAUGCCCUCUCUGAAUGUUUGAACUGCCAAGAAAAGGCAUGGAGACAGCGAACUAGAAGAAAGGGCAAGAAGGAAAUAGCCACCGU,0.966
UCCCCUUGCCUACAGGCCAGCACAUCCCUGGCUGCAGUGCCCAGCAGCUCCCAGCAUGCUCCGUGAUGUUCAGUGGGCAGCAUUACCCCCUCUGCUGCCUCCCGCCCCCG,7.58
UUUUUGGCUUCUGUAAGUAUGCUCUAUGCACCUCUAAUGUUUUAUCAUGUAUUUAUAUGUUGUACACAGUACUGGCUGAUUCUGUAAAUGGAUGUAUUGUACAGAGAACA,1.07
UUGAGACAAUUUCUCUCUUGUUGCCUAGGCAGUGCAGUGGCGCGAUCUCAGCUCCCUGCAACUUCUGCCUCCCAGGUUCAAGCGAUUCUCCUGCCUUAGCCUCCUGAGUA,0.182
AUUUGAAAGAUUGAGCCAAAUUCUGUUGUCAGUUCUAAGCAUGCAGUUCUCACCUCCAUUUAGUCCCCCAUCAGAACAGAGGUCAGGAAUUUAGCUGGGGAGCCUAAAUU,20.9
AGUCAUAAAACCAUGAGAAAUAAAUAGGAAUCAAUAGUUAGUAGUGACAUUGGUGCUCUCUAGAAAUCUCAGCAUGAGCUGCUAUAGAAUACCCUCCCAGCAACAAAACC,2.01
UCCCUCUGGCGGUGGGGGAGGGGCGGAGUUGUGUGUAAUUUAAGACAAUUUAAGGUCUUUUCUAAACACGAUAGUUAUAAAUGUCCUUUUUAGAUCUUCUGGGGUAUGCA,4.83
AUGAAUUUUAUAUUCCGUGAAUGUAUAUUGUCUUGUAAUGUUGCAUAAUGUUCACUUUUUAUAGUGUGUCCUUUAUUCUAAACAGUAAAGUGGUUUUAUUUCUAUCACAC,0.994

# Excerpt of the above (sample 3):
Change,normalised enrichment score
F9Q,0.441
F9I,0.949
P1M,2.05
P13V,1.86
L8T,2.96
L7N,0.673
